Measurements of several laboratories.
Protocols differ between the studies behind these lines. “And” joins repeats or separate records; there may be more than shown. ± gives the spread as reported.
Metallo-beta-lactamase type 2: Metallo-beta-lactamase type 2 (Serratia marcescens, UniProt P52699)
UniProt P52699, sequence (whole entry, looked up): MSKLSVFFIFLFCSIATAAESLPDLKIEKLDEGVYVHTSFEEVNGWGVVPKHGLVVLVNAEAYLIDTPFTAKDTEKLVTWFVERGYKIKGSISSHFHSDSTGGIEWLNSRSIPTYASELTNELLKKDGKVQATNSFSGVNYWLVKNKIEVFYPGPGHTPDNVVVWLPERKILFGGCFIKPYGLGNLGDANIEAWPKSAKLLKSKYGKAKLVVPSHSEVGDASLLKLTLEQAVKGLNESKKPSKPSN
UniProt P53350, sequence (whole entry, looked up): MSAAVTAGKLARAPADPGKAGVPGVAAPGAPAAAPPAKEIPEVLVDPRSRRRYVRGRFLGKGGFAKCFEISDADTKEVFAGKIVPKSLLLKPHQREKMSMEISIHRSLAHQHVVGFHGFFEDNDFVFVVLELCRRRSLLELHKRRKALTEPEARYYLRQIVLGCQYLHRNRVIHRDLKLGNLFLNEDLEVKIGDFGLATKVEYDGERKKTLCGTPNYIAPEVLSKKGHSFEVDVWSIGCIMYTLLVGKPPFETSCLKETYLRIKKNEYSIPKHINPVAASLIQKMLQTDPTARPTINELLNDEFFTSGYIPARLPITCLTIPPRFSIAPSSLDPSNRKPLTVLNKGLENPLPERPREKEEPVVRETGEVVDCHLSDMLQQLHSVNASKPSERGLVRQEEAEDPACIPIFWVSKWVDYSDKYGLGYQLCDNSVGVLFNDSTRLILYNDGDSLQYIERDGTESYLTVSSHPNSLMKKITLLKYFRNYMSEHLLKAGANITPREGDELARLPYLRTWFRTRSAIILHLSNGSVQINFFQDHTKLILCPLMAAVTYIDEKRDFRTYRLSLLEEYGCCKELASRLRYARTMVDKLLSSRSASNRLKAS
UniProt P40261, sequence (whole entry, looked up): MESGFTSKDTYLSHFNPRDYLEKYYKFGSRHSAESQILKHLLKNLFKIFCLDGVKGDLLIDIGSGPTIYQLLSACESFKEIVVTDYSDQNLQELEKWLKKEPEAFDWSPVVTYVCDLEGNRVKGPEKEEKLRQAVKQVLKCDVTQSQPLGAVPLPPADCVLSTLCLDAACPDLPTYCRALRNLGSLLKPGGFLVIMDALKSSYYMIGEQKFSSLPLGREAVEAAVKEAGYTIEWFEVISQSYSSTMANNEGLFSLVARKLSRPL
UniProt Q13705, sequence (whole entry, looked up): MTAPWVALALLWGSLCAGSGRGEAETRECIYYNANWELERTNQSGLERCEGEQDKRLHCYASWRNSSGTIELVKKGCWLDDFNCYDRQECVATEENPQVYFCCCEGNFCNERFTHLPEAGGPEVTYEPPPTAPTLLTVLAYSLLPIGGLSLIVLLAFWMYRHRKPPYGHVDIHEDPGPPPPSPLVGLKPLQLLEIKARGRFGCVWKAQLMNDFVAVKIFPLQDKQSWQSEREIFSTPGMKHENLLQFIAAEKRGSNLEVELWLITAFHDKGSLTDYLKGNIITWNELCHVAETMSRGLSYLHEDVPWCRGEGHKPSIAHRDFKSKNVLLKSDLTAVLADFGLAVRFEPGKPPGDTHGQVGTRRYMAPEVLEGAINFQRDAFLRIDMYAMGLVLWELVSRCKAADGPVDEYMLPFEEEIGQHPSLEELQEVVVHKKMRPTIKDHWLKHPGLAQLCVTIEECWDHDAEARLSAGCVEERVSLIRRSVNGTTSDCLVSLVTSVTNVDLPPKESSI
UniProt Q9HB29, sequence (whole entry, looked up): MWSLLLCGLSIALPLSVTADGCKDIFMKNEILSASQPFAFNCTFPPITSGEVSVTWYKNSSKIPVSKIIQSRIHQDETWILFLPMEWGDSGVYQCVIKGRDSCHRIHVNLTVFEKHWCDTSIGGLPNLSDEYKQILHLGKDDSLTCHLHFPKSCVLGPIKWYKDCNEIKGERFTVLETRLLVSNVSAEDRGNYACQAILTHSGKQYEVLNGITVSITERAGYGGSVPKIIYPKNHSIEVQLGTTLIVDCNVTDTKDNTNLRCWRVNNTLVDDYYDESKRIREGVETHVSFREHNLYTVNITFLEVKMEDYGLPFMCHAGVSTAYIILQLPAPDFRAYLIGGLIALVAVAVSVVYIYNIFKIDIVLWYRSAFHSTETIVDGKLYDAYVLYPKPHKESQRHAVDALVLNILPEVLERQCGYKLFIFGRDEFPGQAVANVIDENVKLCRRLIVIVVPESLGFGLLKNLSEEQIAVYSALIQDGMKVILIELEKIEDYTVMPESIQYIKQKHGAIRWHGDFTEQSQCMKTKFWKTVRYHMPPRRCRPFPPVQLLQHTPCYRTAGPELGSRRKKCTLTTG
UniProt P39051, sequence (whole entry, looked up): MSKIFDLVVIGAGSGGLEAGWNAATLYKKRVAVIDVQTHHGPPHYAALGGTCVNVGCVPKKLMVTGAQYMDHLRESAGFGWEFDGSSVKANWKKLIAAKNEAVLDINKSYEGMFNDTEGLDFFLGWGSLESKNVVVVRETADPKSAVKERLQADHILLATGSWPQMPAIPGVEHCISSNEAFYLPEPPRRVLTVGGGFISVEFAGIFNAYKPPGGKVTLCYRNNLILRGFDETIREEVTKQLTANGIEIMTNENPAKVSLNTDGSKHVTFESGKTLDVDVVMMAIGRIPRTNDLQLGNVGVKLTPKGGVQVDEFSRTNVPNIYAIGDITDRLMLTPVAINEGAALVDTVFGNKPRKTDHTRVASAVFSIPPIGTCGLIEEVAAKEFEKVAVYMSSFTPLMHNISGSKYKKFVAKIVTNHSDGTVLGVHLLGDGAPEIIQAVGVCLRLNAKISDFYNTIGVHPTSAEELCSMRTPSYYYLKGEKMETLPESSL
UniProt O75884, sequence (whole entry, looked up): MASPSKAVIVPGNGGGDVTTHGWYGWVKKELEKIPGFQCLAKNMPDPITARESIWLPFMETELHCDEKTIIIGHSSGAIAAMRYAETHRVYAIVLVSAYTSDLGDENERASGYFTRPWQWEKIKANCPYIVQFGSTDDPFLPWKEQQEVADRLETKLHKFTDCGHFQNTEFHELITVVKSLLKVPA
UniProt Q9FIP9, sequence (whole entry, looked up): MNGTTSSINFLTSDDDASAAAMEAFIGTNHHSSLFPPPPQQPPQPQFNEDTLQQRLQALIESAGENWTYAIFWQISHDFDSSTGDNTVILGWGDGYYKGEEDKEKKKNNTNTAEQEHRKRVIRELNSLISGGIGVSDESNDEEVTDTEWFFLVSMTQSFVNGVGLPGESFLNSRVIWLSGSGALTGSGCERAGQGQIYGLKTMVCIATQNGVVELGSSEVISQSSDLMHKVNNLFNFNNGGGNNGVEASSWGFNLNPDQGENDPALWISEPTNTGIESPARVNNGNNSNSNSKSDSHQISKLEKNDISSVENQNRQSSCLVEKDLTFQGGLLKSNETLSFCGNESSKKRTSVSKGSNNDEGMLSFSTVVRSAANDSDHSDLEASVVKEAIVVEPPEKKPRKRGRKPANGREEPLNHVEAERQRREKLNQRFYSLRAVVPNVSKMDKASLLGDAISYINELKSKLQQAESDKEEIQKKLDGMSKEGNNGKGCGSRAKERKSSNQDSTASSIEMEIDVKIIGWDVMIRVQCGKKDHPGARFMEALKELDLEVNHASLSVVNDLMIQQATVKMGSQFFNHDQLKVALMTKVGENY
UniProt P25084, sequence (whole entry, looked up): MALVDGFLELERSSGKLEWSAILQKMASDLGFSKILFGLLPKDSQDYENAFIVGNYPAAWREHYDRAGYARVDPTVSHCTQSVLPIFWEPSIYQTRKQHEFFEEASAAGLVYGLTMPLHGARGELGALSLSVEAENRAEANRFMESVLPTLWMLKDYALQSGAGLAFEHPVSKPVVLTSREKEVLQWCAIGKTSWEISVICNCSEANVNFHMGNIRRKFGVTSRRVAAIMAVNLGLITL
UniProt P26718, sequence (whole entry, looked up): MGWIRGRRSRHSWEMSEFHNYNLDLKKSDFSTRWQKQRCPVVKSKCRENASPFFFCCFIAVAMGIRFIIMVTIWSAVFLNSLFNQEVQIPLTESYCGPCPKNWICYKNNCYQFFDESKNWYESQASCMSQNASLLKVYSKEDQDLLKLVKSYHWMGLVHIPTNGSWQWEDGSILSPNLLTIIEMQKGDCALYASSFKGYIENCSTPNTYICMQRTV
UniProt P33261, sequence (whole entry, looked up): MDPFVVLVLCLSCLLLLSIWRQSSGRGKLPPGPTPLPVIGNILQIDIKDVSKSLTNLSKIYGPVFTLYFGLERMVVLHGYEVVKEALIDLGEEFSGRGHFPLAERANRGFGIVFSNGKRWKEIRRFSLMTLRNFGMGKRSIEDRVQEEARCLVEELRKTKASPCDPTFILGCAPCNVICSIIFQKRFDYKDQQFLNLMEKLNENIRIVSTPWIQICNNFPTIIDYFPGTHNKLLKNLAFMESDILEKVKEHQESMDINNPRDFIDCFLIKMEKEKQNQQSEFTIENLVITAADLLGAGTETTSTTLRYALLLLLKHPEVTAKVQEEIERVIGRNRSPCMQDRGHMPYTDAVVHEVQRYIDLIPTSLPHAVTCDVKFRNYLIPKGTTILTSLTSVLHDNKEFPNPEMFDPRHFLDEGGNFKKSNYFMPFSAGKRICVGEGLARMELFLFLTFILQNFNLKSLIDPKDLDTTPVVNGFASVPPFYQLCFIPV
UniProt P50391, sequence (whole entry, looked up): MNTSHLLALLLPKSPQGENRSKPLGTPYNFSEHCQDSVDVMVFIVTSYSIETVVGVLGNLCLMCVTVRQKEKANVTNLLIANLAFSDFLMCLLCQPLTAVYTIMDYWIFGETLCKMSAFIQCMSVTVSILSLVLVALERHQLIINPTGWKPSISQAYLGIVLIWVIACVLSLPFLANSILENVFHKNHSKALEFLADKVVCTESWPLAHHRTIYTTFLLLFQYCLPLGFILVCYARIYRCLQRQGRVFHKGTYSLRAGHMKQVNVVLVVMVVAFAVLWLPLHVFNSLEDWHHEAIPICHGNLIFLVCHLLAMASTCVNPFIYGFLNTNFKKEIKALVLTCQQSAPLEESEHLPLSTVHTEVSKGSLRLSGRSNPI

SMILES | target | test | system | conditions | IC50
O=C(O)c1nc[nH]c1C(=O)Nc1ccccc1 | Metallo-beta-lactamase type 2 | inhibitor | – | 10 min preincubation, with: FC5 fluorogenic substrate | 267000 nM
O=C1C=C(Br)/C(=C/Br)O1 | Transcriptional activator protein LasR (lasR, Pseudomonas aeruginosa, UniProt P25084) | reporter gene, antagonist | PAO-JP2 plasI-LVAgfp | with: OdDHL 150 nM | no inhibition
COc1ccc2nc(C)cc(OCC(=O)Nc3cc(C)cc(C)c3)c2c1 | Cytochrome P450 2C19 (CYP2C19, Homo sapiens, UniProt P33261) | inhibitor | – | – | 11000 nM
CC[C@H](C)[C@@H]1NC(=O)[C@H]([C@@H](C)O)NC(=O)CNC(=O)[C@H](CCCNC(=N)N)NC(=O)[C@H](CC(C)C)NC(=O)[C@@H]2CSSC[C@H](NC1=O)C(=O)N[C@H](C(=O)N[C@@H](CO)C(=O)NCC(N)=O)CSSC[C@H](NC(=O)[C@H](C)N)C(=O)N[C@@H](C)C(=O)N[C@@H](Cc1c[nH]c3ccccc13)C(=O)N2 | Chymotrypsinogen B (Homo sapiens, UniProt P17538) | enzyme activity, inhibitor, absorbance | – | pH 7.4 | 108 nM
Nc1nc2nc3nc(N)sc3cc2s1 | Genome polyprotein, NS3 protease (Hepatitis C virus genotype 1b, UniProt P26663) | – | Hepatitis C virus | – | > 500000 nM
N#C[C@@H]1CCCN1C(=O)[C@@H](N)Cc1cccc2ccccc12 | Serine hydrolase RBBP9 (Homo sapiens, UniProt O75884) | enzyme activity, inhibitor | – | – | 880 nM
NC[C@@H]1O[C@H](O[C@H]2[C@@H](O)[C@H](O[C@@H]3[C@@H](O)[C@H](N)C[C@H](N)[C@H]3O[C@H]3O[C@H](CN)[C@@H](O)[C@H](O)[C@H]3N)O[C@@H]2Cn2cc(COCCCCCCCCOCc3cn(C[C@H]4O[C@@H](O[C@@H]5[C@@H](O)[C@H](N)C[C@H](N)[C@H]5O[C@H]5O[C@H](CN)[C@@H](O)[C@H](O)[C@H]5N)[C@H](O)[C@@H]4O[C@H]4O[C@@H](CN)[C@@H](O)[C@H](O)[C@H]4N)nn3)nn2)[C@H](N)[C@@H](O)[C@@H]1O | HIV-1 TAR RNA | Tat peptide binding, FRET competition | – | pH 7.4, 25 °C | 61 ± 13 nM
CC(C)C[C@H](NC(=O)[C@H](CCCNC(=N)N)NC(=O)[C@H](CCC(=O)O)NC(=O)[C@H](CCCCN)NC(=O)[C@H](CCCNC(=N)N)NC(=O)[C@H](CCCCN)NC(=O)[C@]1(C)CCCC=CCCC[C@](C)(NC(=O)[C@H](CC(C)C)NC(=O)[C@H](CO)NC(=O)[C@]2(C)CCCC=CCCC[C@](C)(NC(=O)[C@@H]3CCCN3C(=O)[C@@H](NC(=O)[C@H](CO)NC(=O)c3ccc4c(c3)C(=O)OC43c4ccc(N(C)C)cc4Oc4cc(N(C)C)ccc43)C(C)C)C(=O)N[C@@H](C)C(=O)N[C@@H](CCCNC(=N)N)C(=O)N[C@@H](CCCCN)C(=O)N2)C(=O)N[C@@H](CCCNC(=N)N)C(=O)N[C@@H](Cc2ccccc2)C(=O)N[C@@H](CC(C)C)C(=O)N1)C(=O)O | Transcription factor MYC3 (MYC3, Arabidopsis thaliana, UniProt Q9FIP9) | JAZ9 peptide binding, inhibitor, AlphaScreen | – | pH 8.0, 25 °C, with: 50 nM biotin-JAZ9 peptide | 2200 ± 500 nM
CC[C@H](C)[C@H](NC(=O)[C@H](CC(=O)O)NC(=O)[C@H](CCCNC(=N)N)NC(=O)[C@H](Cc1c[nH]c2ccccc12)NC(=O)[C@@H](NC(=O)[C@H](CO)NC(=O)[C@H](CC(N)=O)NC(=O)[C@H](CC(N)=O)NC(=O)[C@@H](NC(=O)[C@H](CCCNC(=N)N)NC(=O)[C@@H](N)Cc1c[nH]cn1)[C@@H](C)CC)[C@@H](C)CC)C(=O)N[C@@H](Cc1ccccc1)C(=O)N[C@@H](CC(C)C)C(=O)N[C@@H](CCCCN)C(=O)N[C@@H](CCCNC(=N)N)C(=O)N[C@@H](CCCCN)C(=O)O | Sensor histidine kinase ComD (Streptococcus gordonii, UniProt O33646) | – | – | – | > 1000 nM
CCn1nc(-c2cccnc2)nc2c(=O)n(C)c(=O)nc1-2 | Trypanothione reductase (TPR, Trypanosoma brucei brucei, UniProt P39051) | inhibitor, DTNB-coupled colourimetric | – | with: substrate at Km | > 100000 nM
COc1ccc(-c2coc3cc(OCCN4CCCCC4)ccc3c2=O)cc1 | Acetylcholinesterase (Ache, Rattus norvegicus, UniProt P37136) | enzyme activity, inhibitor, Ellman | – | – | 264 nM
CNC(=O)NC(=N)NCCC[C@@H]1NC(=O)[C@@H](C)NC(=O)C[C@@H](C(=O)O)NC(=O)C[C@@H](C(=O)O)NC(=O)[C@H](Cc2ccccc2)N(C)C1=O | Endochitinase B1 (Aspergillus fumigatus, UniProt Q873X9) | enzyme activity, inhibitor, fluorometric | – | 10 min, pH 5.5, 37 °C, with: 20 µM 4-MU-chitobiose | 29 nM
CC(C)[C@@H]1NC(=O)[C@H](Cc2ccccc2)NC(=O)CSC[C@@H](C(N)=O)NC(=O)[C@H](CCC(=O)O)NC(=O)[C@H](CO)NC(=O)[C@H](Cc2c[nH]c3cccc(Cl)c23)NC(=O)[C@H](C2CCCCC2)NC(=O)[C@H](C(C)C)NC(=O)[C@H](Cc2ccc(O)cc2)NC(=O)[C@H](CC(=O)O)NC(=O)[C@H](Cc2c[nH]c3ccccc23)NC(=O)[C@H](Cc2ccc(N)nc2)NC(=O)[C@H](Cc2c[nH]c3ccc(Cl)cc23)NC(=O)[C@H](CCC(=O)O)NC1=O | Interleukin-1 receptor-like 2 (IL1RL2, Homo sapiens, UniProt Q9HB29) | reporter gene, inhibitor | HEK-Blue IL-36R | 6 h, with: IL-36 0.03 ng/mL | 68 nM
CC(=O)N[C@@H](CCCNC(=N)N)C(=O)N[C@@H](Cc1ccc(O)cc1)C(=O)N[C@@H](CCCNC(=N)N)C(=O)N[C@@H](CC(C)C)C(=O)N[C@@H](CCCNC(=N)NC(=O)NCCCCN)C(=O)N[C@@H](Cc1ccc(O)cc1)C(N)=O | Neuropeptide Y receptor type 4 (NPY4R, Homo sapiens, UniProt P50391) | calcium signal, antagonist | – | – | 9580 nM
CN(C)C(=O)[C@@H](NC(=O)c1cc(-c2ccnn2C)ccc1-c1ccc(C(F)(F)F)cc1)c1cccc(C(F)(F)F)c1 | NKG2-D type II integral membrane protein, with ULBP6 (KLRK1, Homo sapiens, UniProt P26718) | ligand binding, inhibitor, TR-FRET | HEK293 expressing NKG2D and DAP10 | with: ULBP6-AF647 | 700 ± 300 nM
COC(=O)C1CN1S(=O)(=O)c1ccc(C)cc1 (stereo not drawn) | Protein disulfide-isomerase A3 (PDIA3, Homo sapiens, UniProt P30101) | enzyme activity, inhibitor, absorbance | – | pH 7.6 | 28000 nM
COc1ccccc1C(NS(=O)(=O)c1cc2ccc(O)nc2cc1Cl)C(=O)N(CC(=O)NCCn1cc(COCCOCCOCCNc2cccc3c2C(=O)N(C2CCC(=O)NC2=O)C3=O)nn1)Cc1cccs1 (mixture of isomers) | UDP-N-acetylglucosamine--peptide N-acetylglucosaminyltransferase 110 kDa subunit (OGT, Homo sapiens, UniProt O15294) | enzyme activity, inhibitor, fluorescence | – | – | 680 nM
CC(=O)N(CCCCCCc1ccccc1)CC(=O)N[C@@H](CC(C)C)C(=O)N[C@@H](Cc1c[nH]cn1)C(=O)N[C@@H](CO)C(=O)N[C@H](C(N)=O)[C@@H](C)CP(=O)(O)O | Serine/threonine-protein kinase PLK1, polo-box (PLK1, Homo sapiens, UniProt P53350) | ligand displacement, FP | – | – | 71 nM
COc1c(C(=O)/C=C(\O)c2ccccc2)ccc2c1C=CC(C)(C)O2 | Amyloid-beta precursor protein (APP, Homo sapiens, UniProt P05067) | amyloid aggregation, inhibitor, fluorescence | – | – | > 200000 nM
CCn1nnc(-c2ccccc2NC(=O)[C@H](C)CS)n1 | Metallo-beta-lactamase type 2 | enzyme activity, inhibitor, fluorescence | – | 10 min preincubation, with: FC5 | 129 nM
CC[C@@H]1C(=O)N(C)c2cnc(Nc3ccc(C(=O)NCCCC[C@H](NC(C)=O)C(=O)NCCOCCOCC(=O)NCCOCCOCC(=O)NCCOCCOCC(=O)N4CCC[C@H]4C(=O)N[C@@H](CC(C)C)C(=O)N[C@@H](Cc4cncn4CCCCCCCCc4ccccc4)C(=O)N[C@@H](CO)C(=O)N[C@H](C(N)=O)[C@@H](C)OP(=O)(O)O)cc3OC)nc2N1C1CCCC1 | Serine/threonine-protein kinase PLK1 (PLK1, Homo sapiens, UniProt P53350) | enzyme activity, inhibitor | – | – | 1.3 ± 0.13 nM
CC[C@H](C)[C@@H]1NC(=O)CNC(=O)[C@H](Cc2ccccc2)NC(=O)[C@H](C)NC(=O)[C@H](CCCCN)NC(=O)[C@@H]2CCCN2C(=O)[C@@H](Cc2ccc(O)cc2)NC(=O)CSC[C@@H](C(=O)NCC(N)=O)NC(=O)[C@H](CC(C)C)NC(=O)[C@H](CC(C)C)NC(=O)[C@H](CC(C)C)NC(=O)[C@H](Cc2ccccc2)NC(=O)[C@H](CCCNC(=N)N)NC(=O)[C@H](CC(=O)O)NC(=O)[C@H](CCCNC(=N)N)NC(=O)[C@H](Cc2ccccc2)NC(=O)[C@H](CCCCN)NC1=O | Nicotinamide N-methyltransferase (NNMT, Homo sapiens, UniProt P40261) | enzyme activity, inhibitor, mass spectrometry | – | – | 6240 nM and ~5000 nM
CC(C)(C)c1ccc(NC(=O)NCCC[C@H](CNCc2ccccc2)C[C@H]2O[C@@H](n3cnc4c(N)ncnc43)[C@H](O)[C@@H]2O)cc1 | N6-adenosine-methyltransferase catalytic subunit, with METTL14 (METTL3, Homo sapiens, UniProt Q86U44) | enzyme activity, inhibitor, radiometric | – | METTL3-METTL14 complex | > 50000 nM
CC(C)C[C@H](NC(=O)[C@H](C)NC(=O)[C@H](CO)NC(=O)[C@H](CC(=O)O)NC(=O)[C@H](CCC(=O)O)NC(=O)[C@@H]1CCCN1C(=O)[C@H](CC(=O)O)NC(=O)[C@H](CCC(=O)O)NC(=O)[C@@H]1CCCN1C(=O)[C@@H](NC(=O)[C@H](CC(C)C)NC(=O)[C@@H](N)CCC(=O)O)C(C)C)C(=O)O | HLA-DRA/HLA-DRB3 (Homo sapiens, UniProt P01903+P79483) | binding, competition binding | purified HLA-DR | 48 h, with: radiolabelled probe peptide 0.1-1 nM | > 5000 nM
Cn1nnc(-c2cccc(NC(=O)CCS)c2)n1 | Metallo-beta-lactamase type 2 | inhibitor | – | 10 min preincubation, with: FC5 substrate | 1180 nM
CC[C@H](C)[C@@H]1NC(=O)[C@H](CCCNC(=N)N)NC(=O)[C@@H]2CCCN2C(=O)[C@H](C(C)C)NC(=O)[C@H](CO)NC(=O)[C@H]([C@@H](C)O)NC(=O)CNC(=O)[C@H](CC(=O)O)NC(=O)[C@@H](NC(=O)[C@@H](N)C(C)C)CSSC[C@@H](C(=O)N[C@H](C(=O)O)C(C)C)NC1=O | Activin receptor type-2B (ACVR2B, Homo sapiens, UniProt Q13705) | reporter gene, antagonist, refers to: Smad2/3 | HEK293T | 4 h, with: GDF11 1 ng/mL | > 100000 nM
C#CCCC(=O)N[C@H]1CSCc2ccccc2CSCCNC(=O)[C@H](CCC(=O)O)NC(=O)[C@H](CCC(=O)O)NC(=O)[C@H](Cc2ccccc2)NC(=O)[C@@H]2CCCN2C(=O)[C@H](CC(N)=O)NC1=O | EH domain-containing protein 1, EH domain (Homo sapiens, UniProt Q9H4M9) | – | – | – | 62800 ± 500 nM
